{"data": "Measurements pooled from the literature", "note": "A part holds a random share of what one study measured.", "chain of UniProt Q8N4C8 (whole entry, looked up)": "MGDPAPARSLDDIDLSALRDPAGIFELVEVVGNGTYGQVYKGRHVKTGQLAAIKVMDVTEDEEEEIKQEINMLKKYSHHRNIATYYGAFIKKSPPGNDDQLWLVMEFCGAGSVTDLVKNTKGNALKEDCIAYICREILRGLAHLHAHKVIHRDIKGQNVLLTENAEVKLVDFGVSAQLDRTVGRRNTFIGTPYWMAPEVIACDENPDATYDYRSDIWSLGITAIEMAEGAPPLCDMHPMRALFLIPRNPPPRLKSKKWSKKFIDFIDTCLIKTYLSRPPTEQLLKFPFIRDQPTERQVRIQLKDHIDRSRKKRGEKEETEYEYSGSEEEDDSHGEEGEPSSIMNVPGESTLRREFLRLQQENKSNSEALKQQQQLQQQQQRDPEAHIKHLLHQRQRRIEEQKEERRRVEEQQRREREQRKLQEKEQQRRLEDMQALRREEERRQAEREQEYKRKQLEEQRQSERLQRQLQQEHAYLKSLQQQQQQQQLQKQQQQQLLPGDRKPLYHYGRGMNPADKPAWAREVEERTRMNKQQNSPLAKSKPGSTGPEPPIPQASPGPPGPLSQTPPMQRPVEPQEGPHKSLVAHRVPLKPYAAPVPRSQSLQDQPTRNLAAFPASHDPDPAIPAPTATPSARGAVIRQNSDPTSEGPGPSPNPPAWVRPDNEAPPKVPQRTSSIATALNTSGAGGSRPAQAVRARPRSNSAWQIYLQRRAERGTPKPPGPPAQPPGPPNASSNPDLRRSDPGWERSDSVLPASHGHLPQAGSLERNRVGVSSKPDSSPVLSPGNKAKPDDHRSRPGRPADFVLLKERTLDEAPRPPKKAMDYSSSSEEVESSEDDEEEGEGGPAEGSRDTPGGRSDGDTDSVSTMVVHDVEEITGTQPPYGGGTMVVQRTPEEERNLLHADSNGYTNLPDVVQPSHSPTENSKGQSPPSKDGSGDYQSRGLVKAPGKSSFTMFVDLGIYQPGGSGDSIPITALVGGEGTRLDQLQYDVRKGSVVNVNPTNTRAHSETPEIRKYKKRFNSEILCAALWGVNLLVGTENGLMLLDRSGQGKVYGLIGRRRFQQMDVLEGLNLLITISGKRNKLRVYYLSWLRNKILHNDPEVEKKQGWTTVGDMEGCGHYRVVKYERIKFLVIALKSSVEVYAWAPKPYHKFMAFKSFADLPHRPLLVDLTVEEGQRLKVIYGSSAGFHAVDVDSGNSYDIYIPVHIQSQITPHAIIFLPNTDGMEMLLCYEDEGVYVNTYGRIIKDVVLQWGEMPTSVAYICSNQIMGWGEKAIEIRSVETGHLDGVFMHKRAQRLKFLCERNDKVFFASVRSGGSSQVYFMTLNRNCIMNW", "chain of UniProt P42681 (whole entry, looked up)": "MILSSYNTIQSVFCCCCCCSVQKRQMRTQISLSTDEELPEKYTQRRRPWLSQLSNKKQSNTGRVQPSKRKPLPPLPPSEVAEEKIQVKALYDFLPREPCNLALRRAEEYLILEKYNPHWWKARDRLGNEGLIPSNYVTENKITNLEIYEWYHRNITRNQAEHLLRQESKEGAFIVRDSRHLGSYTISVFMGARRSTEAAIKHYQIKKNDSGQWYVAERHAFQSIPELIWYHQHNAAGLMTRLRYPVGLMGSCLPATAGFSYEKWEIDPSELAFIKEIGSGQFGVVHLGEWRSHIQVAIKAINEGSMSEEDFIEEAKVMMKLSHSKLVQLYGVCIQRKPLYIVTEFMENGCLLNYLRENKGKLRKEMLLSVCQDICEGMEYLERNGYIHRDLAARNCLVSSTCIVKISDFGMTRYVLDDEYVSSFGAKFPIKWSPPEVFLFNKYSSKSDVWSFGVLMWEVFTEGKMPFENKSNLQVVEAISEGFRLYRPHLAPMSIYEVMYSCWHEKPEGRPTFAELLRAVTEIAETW", "chain of UniProt Q16566 (whole entry, looked up)": "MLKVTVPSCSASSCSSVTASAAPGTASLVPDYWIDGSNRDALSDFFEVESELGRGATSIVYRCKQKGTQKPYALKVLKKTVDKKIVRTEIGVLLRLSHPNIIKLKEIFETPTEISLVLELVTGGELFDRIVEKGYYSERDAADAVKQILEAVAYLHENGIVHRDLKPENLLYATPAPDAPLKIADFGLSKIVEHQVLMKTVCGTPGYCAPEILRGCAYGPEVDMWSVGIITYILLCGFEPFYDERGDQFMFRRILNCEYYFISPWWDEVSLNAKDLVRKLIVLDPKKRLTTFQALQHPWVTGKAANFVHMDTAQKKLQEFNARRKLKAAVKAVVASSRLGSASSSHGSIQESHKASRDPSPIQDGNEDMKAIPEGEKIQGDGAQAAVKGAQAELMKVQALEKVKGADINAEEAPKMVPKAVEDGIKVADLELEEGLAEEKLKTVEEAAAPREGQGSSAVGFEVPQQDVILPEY", "chain of UniProt P49761 (whole entry, looked up)": "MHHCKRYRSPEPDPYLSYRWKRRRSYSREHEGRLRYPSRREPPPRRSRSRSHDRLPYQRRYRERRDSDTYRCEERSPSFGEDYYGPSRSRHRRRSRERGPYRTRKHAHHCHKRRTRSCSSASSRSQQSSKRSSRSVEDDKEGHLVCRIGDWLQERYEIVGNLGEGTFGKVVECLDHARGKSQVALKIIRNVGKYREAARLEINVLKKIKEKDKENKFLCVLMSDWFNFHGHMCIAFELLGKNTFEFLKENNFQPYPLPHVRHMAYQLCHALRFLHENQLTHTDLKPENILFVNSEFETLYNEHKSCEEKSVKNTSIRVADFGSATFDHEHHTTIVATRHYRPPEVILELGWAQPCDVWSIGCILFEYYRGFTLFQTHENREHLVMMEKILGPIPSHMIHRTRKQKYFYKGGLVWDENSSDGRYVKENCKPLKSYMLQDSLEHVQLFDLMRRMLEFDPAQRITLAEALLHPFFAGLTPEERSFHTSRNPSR", "chain of UniProt Q16539 (whole entry, looked up)": "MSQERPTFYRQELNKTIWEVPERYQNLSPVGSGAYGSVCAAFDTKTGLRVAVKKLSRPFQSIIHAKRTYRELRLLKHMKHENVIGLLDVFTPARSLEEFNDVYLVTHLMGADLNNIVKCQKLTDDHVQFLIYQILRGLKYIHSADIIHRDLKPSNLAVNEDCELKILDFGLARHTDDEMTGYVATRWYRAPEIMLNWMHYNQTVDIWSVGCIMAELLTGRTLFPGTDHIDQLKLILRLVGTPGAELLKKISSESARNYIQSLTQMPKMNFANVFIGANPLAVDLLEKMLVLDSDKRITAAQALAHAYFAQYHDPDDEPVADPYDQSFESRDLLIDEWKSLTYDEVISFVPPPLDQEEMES", "chain of UniProt Q13237 (whole entry, looked up)": "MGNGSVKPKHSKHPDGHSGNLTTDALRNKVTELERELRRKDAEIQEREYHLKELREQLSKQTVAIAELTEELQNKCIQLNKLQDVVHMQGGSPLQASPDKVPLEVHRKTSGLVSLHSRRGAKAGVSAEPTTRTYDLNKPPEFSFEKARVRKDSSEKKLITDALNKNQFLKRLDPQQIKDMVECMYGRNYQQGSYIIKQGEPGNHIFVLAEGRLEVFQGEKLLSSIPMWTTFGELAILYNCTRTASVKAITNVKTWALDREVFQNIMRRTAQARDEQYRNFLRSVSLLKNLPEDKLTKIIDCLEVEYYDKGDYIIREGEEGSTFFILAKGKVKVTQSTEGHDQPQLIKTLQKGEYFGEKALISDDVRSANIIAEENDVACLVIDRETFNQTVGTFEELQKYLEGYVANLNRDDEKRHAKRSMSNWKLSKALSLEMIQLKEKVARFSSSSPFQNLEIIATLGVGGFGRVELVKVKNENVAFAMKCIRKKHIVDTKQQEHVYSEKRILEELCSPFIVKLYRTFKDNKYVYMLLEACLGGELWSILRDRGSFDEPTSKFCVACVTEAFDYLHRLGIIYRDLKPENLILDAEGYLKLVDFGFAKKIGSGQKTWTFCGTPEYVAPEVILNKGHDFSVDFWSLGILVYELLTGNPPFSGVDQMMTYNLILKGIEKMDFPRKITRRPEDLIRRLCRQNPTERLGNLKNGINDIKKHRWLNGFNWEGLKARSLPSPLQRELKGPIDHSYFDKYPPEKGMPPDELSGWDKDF", "chain of UniProt P50750 (whole entry, looked up)": "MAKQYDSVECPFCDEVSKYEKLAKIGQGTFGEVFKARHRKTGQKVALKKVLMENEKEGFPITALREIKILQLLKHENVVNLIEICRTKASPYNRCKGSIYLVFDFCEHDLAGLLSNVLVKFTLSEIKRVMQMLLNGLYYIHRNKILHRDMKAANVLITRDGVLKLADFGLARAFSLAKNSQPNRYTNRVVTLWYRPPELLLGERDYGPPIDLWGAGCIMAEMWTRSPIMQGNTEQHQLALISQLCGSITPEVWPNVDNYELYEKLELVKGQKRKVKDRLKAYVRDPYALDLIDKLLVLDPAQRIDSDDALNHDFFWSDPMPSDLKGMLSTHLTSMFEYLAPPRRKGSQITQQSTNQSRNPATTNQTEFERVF", "chain of UniProt P28482 (whole entry, looked up)": "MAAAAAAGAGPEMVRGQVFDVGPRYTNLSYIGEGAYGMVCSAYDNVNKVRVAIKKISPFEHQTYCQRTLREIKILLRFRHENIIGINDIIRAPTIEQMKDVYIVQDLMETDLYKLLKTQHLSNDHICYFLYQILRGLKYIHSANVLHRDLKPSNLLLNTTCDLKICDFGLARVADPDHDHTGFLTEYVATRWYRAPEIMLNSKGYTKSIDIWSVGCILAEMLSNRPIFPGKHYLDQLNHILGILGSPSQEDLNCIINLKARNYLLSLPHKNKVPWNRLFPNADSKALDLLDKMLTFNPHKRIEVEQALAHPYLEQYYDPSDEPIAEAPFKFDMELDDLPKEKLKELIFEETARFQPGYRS", "chain of UniProt Q6P2M8 (whole entry, looked up)": "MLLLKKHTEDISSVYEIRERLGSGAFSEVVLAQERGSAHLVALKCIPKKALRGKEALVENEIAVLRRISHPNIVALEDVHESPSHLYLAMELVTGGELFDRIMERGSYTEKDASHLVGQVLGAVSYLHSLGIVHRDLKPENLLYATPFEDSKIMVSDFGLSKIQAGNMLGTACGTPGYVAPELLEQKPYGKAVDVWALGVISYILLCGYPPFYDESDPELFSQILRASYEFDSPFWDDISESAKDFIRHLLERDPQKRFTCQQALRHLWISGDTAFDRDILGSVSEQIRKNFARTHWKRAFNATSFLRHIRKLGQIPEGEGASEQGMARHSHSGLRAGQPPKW"}
{"data": "Set 1", "organism": "Plasmodium berghei", "mode": "inhibitor", "cells": "Huh-7", "strain": "liver stage", "concentration": "10 µM", "time": "24 h", "reference": "untreated control"}
{"SMILES": "CC#C[C@]1(O)CC[C@H]2[C@@H]3CCC4=CC(=O)CCC4=C3[C@@H](c3ccc(N(C)C)cc3)C[C@@]21C", "infection rate": "86.4%"}
{"SMILES": "COc1ccccc1OCC(O)COC(N)=O (centres unmarked)", "infection rate": "100%"}
{"SMILES": "O=C(O)P(=O)(O)O", "infection rate": "97.2%"}
{"SMILES": "Cc1cc(=O)[nH]c(=S)[nH]1", "infection rate": "91.7%"}
{"SMILES": "OC[C@H]1O[C@@H](O[C@@H]2[C@@H](CO)OC(O)(CO)[C@H]2O)[C@H](O)[C@@H](O)[C@H]1O (mixture of isomers)", "infection rate": "105%"}
{"SMILES": "CC(C)NCC(O)c1ccc(O)c(O)c1 (centres unmarked)", "infection rate": "96.6%"}
{"data": "Set 2", "SMILES": "CCN(CC)CCNC(=O)c1c(C)[nH]c(/C=C2\\C(=O)Nc3ccc(Cl)cc32)c1C", "observed": "enzyme activity", "mode": "inhibitor", "concentration": "0.5 µM", "reference": "control"}
{"target": "Tyrosine-protein kinase TXK (TXK, Homo sapiens, UniProt P42681)", "remaining activity [%]": 79.5}
{"target": "cGMP-dependent protein kinase 2 (PRKG2, Homo sapiens, UniProt Q13237)", "remaining activity [%]": 82.6}
{"target": "Dual specificity protein kinase CLK3 (CLK3, Homo sapiens, UniProt P49761)", "remaining activity [%]": 101}
{"target": "Mitogen-activated protein kinase 11 (MAPK11, Homo sapiens, UniProt Q15759)", "remaining activity [%]": 100}
{"target": "Cyclin-dependent kinase 9, with cyclin K (CDK9, Homo sapiens, UniProt P50750)", "remaining activity [%]": 40.1}
{"target": "Mitogen-activated protein kinase 14 (MAPK14, Homo sapiens, UniProt Q16539)", "remaining activity [%]": 103}
{"target": "Cyclin-dependent kinase 1, with cyclin A (CDK1, Homo sapiens, UniProt P06493)", "remaining activity [%]": 87.5}
{"target": "Calcium/calmodulin-dependent protein kinase type 1B (PNCK, Homo sapiens, UniProt Q6P2M8)", "remaining activity [%]": 70.5}
{"target": "Calcium/calmodulin-dependent protein kinase type IV (CAMK4, Homo sapiens, UniProt Q16566)", "remaining activity [%]": 95}
{"target": "MAP/microtubule affinity-regulating kinase 4 (MARK4, Homo sapiens, UniProt Q96L34)", "remaining activity [%]": 7.19}
{"target": "Serine/threonine-protein kinase MARK2 (MARK2, Homo sapiens, UniProt Q7KZI7)", "remaining activity [%]": 9.74}
{"target": "Misshapen-like kinase 1 (MINK1, Homo sapiens, UniProt Q8N4C8)", "remaining activity [%]": 4.4}
{"target": "Mitogen-activated protein kinase 1 (MAPK1, Homo sapiens, UniProt P28482)", "remaining activity [%]": 97.1}
{"target": "Serine/threonine-protein kinase PLK3 (PLK3, Homo sapiens, UniProt Q9H4B4)", "remaining activity [%]": 89.8}
{"data": "Set 3", "cell line": "sample D normal colon organoid", "method": "CellTiter-Glo", "concentration": "0.1 µM", "setting": "mean of replicates", "reference": "DMSO"}
{"SMILES": "CC(C)(C)OC(=O)N1CCCC1CNC1CCC(c2cc(F)ccc2F)(S(=O)(=O)c2ccc(Cl)cc2)CC1 (centres unmarked)", "viability": "88.6%"}
{"SMILES": "Cc1c(NC(=O)c2cc(C(N)=O)nc3cc(F)ccc23)c(C(F)(F)F)nn1Cc1ccc(C(C)(C)C)cc1", "viability": "84.5%"}
{"SMILES": "CNC(=O)c1ccc(Nc2ncc(C(F)(F)F)c(NCc3nccnc3N(C)S(C)(=O)=O)n2)cc1", "viability": "112%"}
{"SMILES": "Cc1nc(Cc2cccc(C(F)(F)F)c2)sc1-c1ccc(C(N)=O)nc1", "viability": "127%"}
{"SMILES": "CCCOc1ccc([C@H]2[C@H](C(=O)O)[C@@H](c3ccc4c(c3)OCO4)CN2CC(=O)Nc2c(CC)cccc2CC)cc1", "viability": "124%"}
{"SMILES": "N#Cc1ccc(Nc2ccc3[nH]c(=O)[nH]c3c2)c(Cl)c1", "viability": "101%"}
{"SMILES": "O=C(Nc1ccc(Oc2ccc(F)cc2)cc1)N1CCc2ncccc2[C@H]1c1ccc(F)cc1", "viability": "104%"}
{"data": "Set 4", "cell line": "HaCaT", "concentration": "100 µM", "time": "18 h"}
{"Structure (SMILES)": "CCOC(=O)C1=C(COCCN)NC(C)=C(C(=O)OC)[C@@H]1c1ccccc1Cl", "viability [%]": 18.5}
{"Structure (SMILES)": "CN1CCC(=C2c3ccccc3CC(=O)c3sccc32)CC1", "viability [%]": 108}
{"Structure (SMILES)": "CCOc1ccc2ccccc2c1C(=O)N[C@@H]1C(=O)N2[C@@H]1SC(C)(C)[C@@H]2C(=O)O", "viability [%]": 100}
{"Structure (SMILES)": "C[C@]12CC[C@@H]3c4ccc(O)cc4CC[C@H]3[C@@H]1CC[C@@H]2O", "viability [%]": 77.6}
{"Structure (SMILES)": "C[C@@H](NCCCc1cccc(C(F)(F)F)c1)c1cccc2ccccc12", "viability [%]": 18.8}
{"Structure (SMILES)": "OC[C@H]1O[C@@H](c2ccc(Cl)c(Cc3ccc(O[C@H]4CCOC4)cc3)c2)[C@H](O)[C@@H](O)[C@@H]1O", "viability [%]": 86.6}
{"Structure (SMILES)": "CC(C)[C@H](NC(=O)[C@H](CC(=O)O)NC(=O)[C@H](CCCCN)NC(=O)[C@@H](N)CCCN=C(N)N)C(=O)N[C@@H](Cc1ccc(O)cc1)C(=O)O", "viability [%]": 110}
{"Structure (SMILES)": "CCOC(=O)c1c(CSc2ccccc2)n(C)c2cc(Br)c(O)c(CN(C)C)c12", "viability [%]": 23.9}
{"note": "Some of these lines once more (set 2):"}
{"target": "Cyclin-dependent kinase 1, with cyclin A (CDK1, Homo sapiens, UniProt P06493)", "remaining activity [%]": 87.5}
{"target": "Calcium/calmodulin-dependent protein kinase type 1B (PNCK, Homo sapiens, UniProt Q6P2M8)", "remaining activity [%]": 70.5}
{"target": "Calcium/calmodulin-dependent protein kinase type IV (CAMK4, Homo sapiens, UniProt Q16566)", "remaining activity [%]": 95}
{"target": "MAP/microtubule affinity-regulating kinase 4 (MARK4, Homo sapiens, UniProt Q96L34)", "remaining activity [%]": 7.19}
